Measured values gathered from unrelated publications.
Protocols differ between the studies behind these lines.
TMPRSS2: Transmembrane protease serine 2 (TMPRSS2, Homo sapiens, UniProt O15393)
Chain of UniProt O15393 (whole entry, looked up): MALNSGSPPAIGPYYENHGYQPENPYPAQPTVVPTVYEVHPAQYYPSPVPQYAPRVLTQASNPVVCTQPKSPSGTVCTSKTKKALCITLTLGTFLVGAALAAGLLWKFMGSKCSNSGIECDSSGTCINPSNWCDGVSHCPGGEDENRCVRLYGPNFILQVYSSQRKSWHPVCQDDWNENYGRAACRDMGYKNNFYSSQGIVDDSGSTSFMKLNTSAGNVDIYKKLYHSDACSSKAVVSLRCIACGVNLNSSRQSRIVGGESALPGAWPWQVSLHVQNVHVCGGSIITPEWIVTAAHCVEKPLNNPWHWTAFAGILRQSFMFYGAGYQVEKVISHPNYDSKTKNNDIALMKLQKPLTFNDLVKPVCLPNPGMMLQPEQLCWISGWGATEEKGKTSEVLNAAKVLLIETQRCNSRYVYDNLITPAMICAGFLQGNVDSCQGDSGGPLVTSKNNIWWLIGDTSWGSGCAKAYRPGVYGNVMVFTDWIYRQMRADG
Htr2a: 5-hydroxytryptamine receptor 2A (Htr2a, Mus musculus, UniProt P35363)
Chain of UniProt P35363 (whole entry, looked up): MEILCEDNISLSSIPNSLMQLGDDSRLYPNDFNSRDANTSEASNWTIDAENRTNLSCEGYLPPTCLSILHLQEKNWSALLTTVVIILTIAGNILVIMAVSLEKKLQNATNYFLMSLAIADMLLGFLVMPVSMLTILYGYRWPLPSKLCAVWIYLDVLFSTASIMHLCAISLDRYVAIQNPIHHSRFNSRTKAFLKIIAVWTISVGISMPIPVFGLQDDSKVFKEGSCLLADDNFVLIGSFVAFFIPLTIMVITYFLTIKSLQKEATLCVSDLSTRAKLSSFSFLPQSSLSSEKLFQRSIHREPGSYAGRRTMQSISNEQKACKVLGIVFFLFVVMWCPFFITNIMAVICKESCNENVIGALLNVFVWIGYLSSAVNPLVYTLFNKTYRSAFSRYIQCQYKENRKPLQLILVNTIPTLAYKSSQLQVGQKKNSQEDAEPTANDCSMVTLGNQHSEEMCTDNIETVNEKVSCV
PFF0160c E182D: Dihydroorotate dehydrogenase (quinone), mitochondrial (PFF0160c, Plasmodium falciparum, UniProt Q08210, E182D)
HTR2C: 5-hydroxytryptamine receptor 2C (HTR2C, Homo sapiens, UniProt P28335)
Chain of UniProt P28335 (whole entry, looked up): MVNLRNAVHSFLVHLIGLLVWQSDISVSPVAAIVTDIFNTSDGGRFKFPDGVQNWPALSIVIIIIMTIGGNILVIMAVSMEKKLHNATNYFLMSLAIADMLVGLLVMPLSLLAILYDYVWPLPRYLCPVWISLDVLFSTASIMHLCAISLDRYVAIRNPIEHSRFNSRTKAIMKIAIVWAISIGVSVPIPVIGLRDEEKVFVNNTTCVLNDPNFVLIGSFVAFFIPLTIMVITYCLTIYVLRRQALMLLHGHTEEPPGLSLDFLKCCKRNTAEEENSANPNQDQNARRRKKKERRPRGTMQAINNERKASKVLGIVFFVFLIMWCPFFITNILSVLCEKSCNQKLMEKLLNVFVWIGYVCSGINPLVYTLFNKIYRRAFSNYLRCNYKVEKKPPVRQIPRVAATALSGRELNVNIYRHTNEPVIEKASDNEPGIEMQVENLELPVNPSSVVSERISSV
tmk: Thymidylate kinase (tmk, Mycobacterium tuberculosis, UniProt P9WKE1)
Chain of UniProt O15197 (whole entry, looked up): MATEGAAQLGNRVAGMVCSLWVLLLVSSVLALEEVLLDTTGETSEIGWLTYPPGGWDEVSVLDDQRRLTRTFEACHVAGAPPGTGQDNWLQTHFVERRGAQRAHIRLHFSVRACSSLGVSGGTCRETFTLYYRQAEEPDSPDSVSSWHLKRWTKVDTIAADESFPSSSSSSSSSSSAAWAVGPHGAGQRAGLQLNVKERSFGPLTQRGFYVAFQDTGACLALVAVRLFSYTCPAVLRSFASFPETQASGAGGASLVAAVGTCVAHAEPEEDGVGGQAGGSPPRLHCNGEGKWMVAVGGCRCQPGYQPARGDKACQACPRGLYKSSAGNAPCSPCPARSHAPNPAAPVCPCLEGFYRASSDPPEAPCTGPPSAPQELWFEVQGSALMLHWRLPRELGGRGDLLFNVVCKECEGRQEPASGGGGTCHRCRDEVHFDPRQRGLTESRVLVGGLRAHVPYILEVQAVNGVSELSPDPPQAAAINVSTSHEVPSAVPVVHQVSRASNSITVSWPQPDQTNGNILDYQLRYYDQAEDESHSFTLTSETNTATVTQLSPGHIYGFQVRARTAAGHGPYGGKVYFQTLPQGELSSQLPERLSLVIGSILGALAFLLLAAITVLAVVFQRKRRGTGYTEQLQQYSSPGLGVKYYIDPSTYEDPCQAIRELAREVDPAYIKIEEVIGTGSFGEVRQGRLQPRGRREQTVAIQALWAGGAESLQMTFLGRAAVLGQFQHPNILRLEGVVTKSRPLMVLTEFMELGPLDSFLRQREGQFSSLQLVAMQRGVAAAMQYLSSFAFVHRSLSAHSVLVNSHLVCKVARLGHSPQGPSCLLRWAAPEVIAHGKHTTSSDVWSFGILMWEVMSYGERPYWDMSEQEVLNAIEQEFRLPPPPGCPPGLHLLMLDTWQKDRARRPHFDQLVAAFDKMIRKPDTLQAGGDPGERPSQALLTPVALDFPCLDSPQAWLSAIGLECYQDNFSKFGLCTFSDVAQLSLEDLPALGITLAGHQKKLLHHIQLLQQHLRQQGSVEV
Chain of UniProt Q13177 (whole entry, looked up): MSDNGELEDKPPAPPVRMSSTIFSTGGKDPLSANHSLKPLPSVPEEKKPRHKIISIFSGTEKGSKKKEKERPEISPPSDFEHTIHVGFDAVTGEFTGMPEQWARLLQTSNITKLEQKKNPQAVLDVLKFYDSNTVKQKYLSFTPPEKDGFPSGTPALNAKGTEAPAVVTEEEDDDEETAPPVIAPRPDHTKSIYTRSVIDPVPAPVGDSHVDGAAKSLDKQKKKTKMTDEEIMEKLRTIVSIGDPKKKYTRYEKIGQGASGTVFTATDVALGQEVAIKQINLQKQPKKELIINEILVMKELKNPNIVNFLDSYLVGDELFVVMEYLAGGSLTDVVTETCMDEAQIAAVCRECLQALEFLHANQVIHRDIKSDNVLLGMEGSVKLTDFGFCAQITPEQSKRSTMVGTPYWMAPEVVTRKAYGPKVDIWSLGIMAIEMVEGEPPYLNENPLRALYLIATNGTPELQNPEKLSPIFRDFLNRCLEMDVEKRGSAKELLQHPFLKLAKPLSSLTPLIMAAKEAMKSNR
Chain of UniProt Q9NY57 (whole entry, looked up): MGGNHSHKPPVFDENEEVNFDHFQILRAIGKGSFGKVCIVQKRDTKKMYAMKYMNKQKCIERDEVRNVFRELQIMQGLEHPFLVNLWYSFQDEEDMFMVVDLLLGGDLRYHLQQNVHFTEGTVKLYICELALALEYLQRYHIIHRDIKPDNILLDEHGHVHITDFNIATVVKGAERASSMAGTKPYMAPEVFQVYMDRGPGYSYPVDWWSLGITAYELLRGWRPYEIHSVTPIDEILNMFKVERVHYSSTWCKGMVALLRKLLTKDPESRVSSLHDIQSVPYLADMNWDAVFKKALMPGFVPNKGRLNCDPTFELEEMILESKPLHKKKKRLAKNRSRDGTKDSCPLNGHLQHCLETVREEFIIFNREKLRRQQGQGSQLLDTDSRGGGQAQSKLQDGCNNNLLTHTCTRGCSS
Chain of UniProt Q16288 (whole entry, looked up): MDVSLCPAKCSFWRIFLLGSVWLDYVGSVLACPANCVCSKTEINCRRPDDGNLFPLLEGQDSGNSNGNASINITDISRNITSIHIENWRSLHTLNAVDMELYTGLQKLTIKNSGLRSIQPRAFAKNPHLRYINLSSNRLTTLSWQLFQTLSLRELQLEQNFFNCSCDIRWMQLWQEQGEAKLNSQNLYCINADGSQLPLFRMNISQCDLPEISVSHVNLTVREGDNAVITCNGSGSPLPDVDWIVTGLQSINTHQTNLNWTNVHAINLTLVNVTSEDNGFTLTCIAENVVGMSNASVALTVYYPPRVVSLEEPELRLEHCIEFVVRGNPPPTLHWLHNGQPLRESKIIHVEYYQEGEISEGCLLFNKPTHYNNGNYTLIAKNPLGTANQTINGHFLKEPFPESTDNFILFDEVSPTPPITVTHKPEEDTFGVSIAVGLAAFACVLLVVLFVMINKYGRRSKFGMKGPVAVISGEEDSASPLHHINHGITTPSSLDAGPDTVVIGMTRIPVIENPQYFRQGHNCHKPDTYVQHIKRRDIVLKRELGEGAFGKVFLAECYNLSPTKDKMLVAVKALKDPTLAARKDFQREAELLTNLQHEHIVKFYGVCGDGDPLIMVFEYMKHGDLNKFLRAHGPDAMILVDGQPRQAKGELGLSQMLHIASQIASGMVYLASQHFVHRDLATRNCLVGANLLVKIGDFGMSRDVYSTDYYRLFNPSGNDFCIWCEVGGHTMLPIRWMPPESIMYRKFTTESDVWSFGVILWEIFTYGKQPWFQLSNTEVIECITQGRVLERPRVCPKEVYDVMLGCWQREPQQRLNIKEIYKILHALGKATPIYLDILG

`Cl.O=C(N[C@H]1CC[C@@]2(O)[C@H]3Cc4ccc(O)c5c4[C@@]2(CCN3CC2CC2)[C@H]1O5)c1ccc(Cl)s1` has an Emax of 26.7% (HEK293; GTPγS binding, agonist, radiometric).
Under “activity vs control”, `CC(=O)N[C@@H](CCCNC(=N)N)C(=O)N[C@@H](CCC(N)=O)C(=O)N[C@@H](C)C(=O)N[C@@H](CCCNC(=N)N)C(=O)c1nc2ccccc2s1` is recorded as 82% (TMPRSS2; enzyme activity, inhibitor; 1 nM).
`COc1cc(CCNC(C)c2ccccc2)c(OC)cc1C#N` (centres unmarked) has an Emax of 78% (Htr2a; G protein activation, agonist, BRET).
With `COC(=O)c1cc(-c2cccc(NC(=O)Nc3ccc(C)cc3)c2)on1` the MIC was greater than 64 µg/mL (Pseudomonas aeruginosa; microbial growth, broth dilution; ATCC27853).
With `CC[C@H](C)[C@H](NC(=O)[C@H](Cc1ccccc1)NC(=O)[C@H](CCC(=O)O)NC(=O)[C@H](CCCNC(=N)N)NC(=O)[C@H](C)NC(=O)[C@H](C)NC(=O)[C@H](CCC(N)=O)NC(=O)[C@H](CCC(=O)O)NC(=O)[C@H](CCC(=O)O)NC(=O)[C@H](CC(C)C)NC(=O)[C@H](Cc1ccc(O)cc1)NC(=O)[C@H](CO)NC(=O)[C@H](CO)NC(=O)[C@@H](NC(=O)[C@H](CC(=O)O)NC(=O)[C@H](CO)NC(=O)[C@@H](NC(=O)[C@H](Cc1ccccc1)NC(=O)[C@@H](NC(=O)CNC(=O)[C@H](CCC(=O)O)NC(=O)[C@H](C)NC(=O)CCc1c[nH]cn1)[C@@H](C)O)[C@@H](C)O)C(C)C)C(=O)N[C@@H](C)C(=O)N[C@@H](Cc1c[nH]c2ccccc12)C(=O)N[C@@H](CC(C)C)C(=O)N[C@H](C(=O)N[C@@H](CCCNC(=N)N)C(=O)NCC(=O)N[C@@H](CCCNC(=N)N)C(=O)N[C@@H](CCCCNC(=O)COCCOCCNC(=O)COCCOCCNC(=O)CC[C@H](NC(=O)CCCCCCCCCCCCCCCCC(=O)O)C(=O)O)C(=O)NCC(=O)NCC(=O)N[C@@H](CO)C(=O)N[C@@H](CCCCNc1c(NCCCCCN(O)C(=O)CCC(=O)NCCCCCN(O)C(=O)CCC(=O)NCCCCCN(O)C(C)=O)c(=O)c1=O)C(=O)O)C(C)C` the MRT was 10 h (rat, plasma; intravenous, 20 nmol/kg).
For `COc1ccc(Cl)c2c1NC(=O)C2NC(C)=O` (centres unmarked), the IC50 was greater than 10000 nM (PFF0160c E182D; enzyme activity, inhibitor, absorbance).
The remaining binding of `Cc1nn(C)cc1-c1nc2c(N3CCN(Cc4ccc(Cl)cc4)CC3)c(Cl)cnc2[nH]1` is reported as 100% (STK32B (Homo sapiens, UniProt Q9NY57); binding, competition with immobilised ligand; 1 µM).
The Emax of `COc1cc(CCNCc2ccccc2O)c(OC)cc1C#N` is reported as 102% (HTR2C; calcium signal, agonist).
For `C#Cc1n[nH]c2c(-c3cn([C@@H](C)c4ccccn4)c(=O)[nH]c3=O)cc(F)cc12`, the inhibition was 12.1% (NTRK3 (Homo sapiens, UniProt Q16288); enzyme activity, inhibitor; 0.1 µM).
With `Cl.NC(=O)c1ccc(C(=O)N[C@H]2CC[C@@]3(O)[C@H]4Cc5ccc(O)c6c5[C@@]3(CCN4CC3CC3)[C@H]2O6)s1` the Emax was 44% (HEK293; GTPγS binding, agonist, radiometric).
With `CCOC(=O)C1=C(C)NC(=NN=c2[nH]c3ccccc3[nH]c2=O)NC1c1ccc(F)cc1` (centres unmarked) the inhibition was 82.8% (tmk; enzyme activity, inhibitor, absorbance; 10 µg/mL).
`COc1cc(CCNC(C)c2ccccc2O)c(OC)cc1C#N` (single isomer, unassigned; (-)) gave an Emax of 119% (HTR2C; G protein activation, agonist, BRET).
With `COc1ncccc1-c1cnn2ccc(N3CCN(C(=O)OC(C)C)CC3)nc12` the remaining binding was 38% (EPHB6 (Homo sapiens, UniProt O15197); binding, competition with immobilised ligand; 1 µM).
The inhibition of `N.N.[Cl][Pt][Cl]` is reported as 100% (Pfeiffer; cell growth or viability, ATP luminescence; 10 µM, 72 h).
For `COC(=O)c1cc(-c2cccc(NC(=O)Nc3ccc(F)c(F)c3)c2)on1`, the MIC was greater than 64 µg/mL (Pseudomonas aeruginosa; microbial growth, broth dilution; ATCC27853).
`Cc1cc(=O)oc2c1ccc1oc(C(O)c3ccc(Cl)cc3)c(C)c12` (centres unmarked) gave an IC50 of 855 nM (PFF0160c E182D; enzyme activity, inhibitor, absorbance).
`CC1=C(C(N)=O)C(c2ccc([N+](=O)[O-])o2)NC(=O)N1` (centres unmarked) has an inhibition of 89.8% (tmk; enzyme activity, inhibitor, absorbance; 10 µg/mL).
With `[2H]c1c([2H])c([C@]2([2H])CCCN2C(=O)C(C)(C)Oc2ccc3cn[nH]c3c2)c([2H])c([2H])c1C([2H])([2H])[2H]` the remaining binding was 89% (PAK2 (Homo sapiens, UniProt Q13177); binding, competition with immobilised ligand; 1 µM).
`Nc1ncc(-c2nc(N3CCOCC3)nc(N3CCOCC3)n2)c(C(F)F)n1` gave a remaining binding of 47% (Tyrosine-protein kinase ABL1, phosphorylated (ABL1, Homo sapiens, UniProt P00519, Q252H); binding, competition with immobilised ligand; 10 µM).
Under “activity vs control”, `C[C@@H](O)[C@@H](NC(=O)[C@H](CCc1ccccc1)NC(=O)CCc1ccccc1)C(=O)N[C@H](CCCNC(=N)N)C(=O)c1nc2ccccc2s1` is recorded as 75% (TMPRSS2; enzyme activity, inhibitor; 1 nM).
For `CC(=O)Nc1ccc(C(=O)N[C@H]2CC[C@@]3(O)[C@H]4Cc5ccc(O)c6c5[C@@]3(CCN4CC3CC3)[C@H]2O6)s1.Cl`, the Emax was 21.2% (HEK293; GTPγS binding, agonist, radiometric).
With `COc1cc(CCN)c(OC)cc1Br` the Emax was 97% (Htr2a; G protein activation, agonist, BRET).
`CS(=O)(=O)N[C@@H](CCCNC(=N)N)C(=O)N[C@@H](CCC(N)=O)C(=O)N[C@@H](Cc1ccccc1)C(=O)N[C@H](CCCNC(=N)N)C(=O)c1nccs1`: “activity vs control” 61% (TMPRSS2; enzyme activity, inhibitor; 1 nM).

Excerpt of the above:
`Nc1ncc(-c2nc(N3CCOCC3)nc(N3CCOCC3)n2)c(C(F)F)n1` gave a remaining binding of 47% (Tyrosine-protein kinase ABL1, phosphorylated (ABL1, Homo sapiens, UniProt P00519, Q252H); binding, competition with immobilised ligand; 10 µM).
For `C#Cc1n[nH]c2c(-c3cn([C@@H](C)c4ccccn4)c(=O)[nH]c3=O)cc(F)cc12`, the inhibition was 12.1% (NTRK3 (Homo sapiens, UniProt Q16288); enzyme activity, inhibitor; 0.1 µM).
With `COc1ncccc1-c1cnn2ccc(N3CCN(C(=O)OC(C)C)CC3)nc12` the remaining binding was 38% (EPHB6 (Homo sapiens, UniProt O15197); binding, competition with immobilised ligand; 1 µM).
